Experimental data gathered from unrelated publications.
Protocols differ between the studies behind these lines. ± gives the spread as reported.
DNMT3A catalytic domain: DNA (cytosine-5)-methyltransferase 3A, catalytic domain (DNMT3A, Homo sapiens, UniProt Q9Y6K1)
CDK2 with cyclin A2: Cyclin-dependent kinase 2, with cyclin A2 (CDK2, Homo sapiens, UniProt P24941)
AKR1C3: Aldo-keto reductase family 1 member C3 (AKR1C3, Homo sapiens, UniProt P42330)
Sequence of UniProt P42330 (whole entry, looked up): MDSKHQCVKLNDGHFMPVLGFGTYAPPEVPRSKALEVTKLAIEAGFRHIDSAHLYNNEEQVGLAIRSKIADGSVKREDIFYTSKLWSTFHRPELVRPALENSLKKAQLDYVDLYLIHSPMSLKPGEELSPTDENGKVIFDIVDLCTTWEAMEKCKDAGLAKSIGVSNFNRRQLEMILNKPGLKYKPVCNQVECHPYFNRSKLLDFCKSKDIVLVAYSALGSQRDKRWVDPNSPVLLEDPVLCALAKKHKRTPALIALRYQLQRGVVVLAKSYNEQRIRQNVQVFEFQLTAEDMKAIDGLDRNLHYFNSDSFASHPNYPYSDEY
Ectonucleoside triphosphate diphosphohydrolase 2: Ectonucleoside triphosphate diphosphohydrolase 2 (Homo sapiens, UniProt Q9Y5L3)
Sequence of UniProt Q9Y5L3 (whole entry, looked up): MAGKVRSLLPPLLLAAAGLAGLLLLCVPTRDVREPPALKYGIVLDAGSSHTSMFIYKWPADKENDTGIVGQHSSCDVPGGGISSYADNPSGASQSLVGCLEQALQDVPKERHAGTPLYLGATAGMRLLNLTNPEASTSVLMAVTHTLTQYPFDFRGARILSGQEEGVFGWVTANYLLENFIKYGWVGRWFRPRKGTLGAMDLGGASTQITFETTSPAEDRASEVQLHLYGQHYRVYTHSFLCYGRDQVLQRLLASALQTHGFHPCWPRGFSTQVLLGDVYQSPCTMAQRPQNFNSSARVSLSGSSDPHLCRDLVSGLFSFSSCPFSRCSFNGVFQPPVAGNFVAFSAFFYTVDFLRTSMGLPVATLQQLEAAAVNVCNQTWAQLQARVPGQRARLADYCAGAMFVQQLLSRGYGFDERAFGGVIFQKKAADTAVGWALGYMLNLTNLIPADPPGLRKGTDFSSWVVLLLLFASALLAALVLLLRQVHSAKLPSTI
MAL12: Alpha-glucosidase MAL12 (MAL12, Saccharomyces cerevisiae S288c, UniProt P53341)
Sequence of UniProt P53341 (whole entry, looked up): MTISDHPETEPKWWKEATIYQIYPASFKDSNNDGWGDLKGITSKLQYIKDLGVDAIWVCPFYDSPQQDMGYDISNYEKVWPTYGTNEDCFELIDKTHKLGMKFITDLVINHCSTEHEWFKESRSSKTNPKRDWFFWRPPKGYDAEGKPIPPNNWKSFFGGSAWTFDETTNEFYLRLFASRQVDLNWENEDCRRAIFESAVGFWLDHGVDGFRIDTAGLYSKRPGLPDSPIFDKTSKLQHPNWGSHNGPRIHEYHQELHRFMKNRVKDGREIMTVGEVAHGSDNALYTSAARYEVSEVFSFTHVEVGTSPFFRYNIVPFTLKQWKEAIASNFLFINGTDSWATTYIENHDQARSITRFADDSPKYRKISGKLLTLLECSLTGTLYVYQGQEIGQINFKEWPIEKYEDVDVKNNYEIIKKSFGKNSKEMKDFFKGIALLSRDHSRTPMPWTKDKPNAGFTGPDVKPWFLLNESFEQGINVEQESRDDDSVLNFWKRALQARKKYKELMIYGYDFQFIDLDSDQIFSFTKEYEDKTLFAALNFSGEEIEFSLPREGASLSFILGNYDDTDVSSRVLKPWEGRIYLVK
SIRT6: NAD-dependent protein deacylase sirtuin-6 (SIRT6, Homo sapiens, UniProt Q8N6T7)
Sequence of UniProt Q8N6T7 (whole entry, looked up): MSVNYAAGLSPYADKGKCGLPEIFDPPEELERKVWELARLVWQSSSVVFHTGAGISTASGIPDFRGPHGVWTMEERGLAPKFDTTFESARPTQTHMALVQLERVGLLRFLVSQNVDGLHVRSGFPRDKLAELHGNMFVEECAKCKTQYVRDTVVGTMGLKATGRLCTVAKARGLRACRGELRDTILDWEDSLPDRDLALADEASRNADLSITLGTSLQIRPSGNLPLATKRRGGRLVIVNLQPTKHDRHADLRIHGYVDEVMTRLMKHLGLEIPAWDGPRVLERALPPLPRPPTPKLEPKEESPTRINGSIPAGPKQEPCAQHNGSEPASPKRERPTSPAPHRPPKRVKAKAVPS
Sequence of UniProt Q14654 (whole entry, looked up): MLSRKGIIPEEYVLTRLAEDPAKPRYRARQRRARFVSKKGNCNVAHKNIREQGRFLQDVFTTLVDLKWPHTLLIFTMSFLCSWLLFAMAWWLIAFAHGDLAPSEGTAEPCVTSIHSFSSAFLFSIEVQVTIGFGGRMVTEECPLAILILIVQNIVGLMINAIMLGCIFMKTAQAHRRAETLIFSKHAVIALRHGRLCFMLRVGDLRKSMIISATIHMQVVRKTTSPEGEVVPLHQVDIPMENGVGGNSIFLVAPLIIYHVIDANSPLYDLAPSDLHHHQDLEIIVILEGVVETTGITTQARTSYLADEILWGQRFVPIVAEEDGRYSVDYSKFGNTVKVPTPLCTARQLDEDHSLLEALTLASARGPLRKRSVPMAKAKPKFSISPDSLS
Sequence of UniProt Q9UM07 (whole entry, looked up): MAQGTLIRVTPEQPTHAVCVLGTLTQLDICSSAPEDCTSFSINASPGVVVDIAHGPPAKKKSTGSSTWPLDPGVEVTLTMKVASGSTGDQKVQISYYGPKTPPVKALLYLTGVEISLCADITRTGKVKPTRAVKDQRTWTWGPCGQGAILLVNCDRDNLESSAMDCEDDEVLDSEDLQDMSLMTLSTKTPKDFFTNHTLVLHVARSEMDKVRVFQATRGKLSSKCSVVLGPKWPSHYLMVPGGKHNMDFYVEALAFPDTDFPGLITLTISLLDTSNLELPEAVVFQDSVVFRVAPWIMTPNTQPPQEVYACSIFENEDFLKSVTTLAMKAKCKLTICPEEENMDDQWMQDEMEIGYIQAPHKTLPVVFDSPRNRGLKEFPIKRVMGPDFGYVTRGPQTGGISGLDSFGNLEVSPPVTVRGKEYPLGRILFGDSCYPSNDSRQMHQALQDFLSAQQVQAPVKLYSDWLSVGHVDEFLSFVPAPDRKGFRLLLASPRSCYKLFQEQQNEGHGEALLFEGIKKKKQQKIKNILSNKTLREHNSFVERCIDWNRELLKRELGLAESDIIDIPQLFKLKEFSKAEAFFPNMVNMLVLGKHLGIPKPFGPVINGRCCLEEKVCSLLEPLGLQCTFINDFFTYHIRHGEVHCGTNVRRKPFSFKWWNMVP
Sequence of UniProt Q16620 (whole entry, looked up): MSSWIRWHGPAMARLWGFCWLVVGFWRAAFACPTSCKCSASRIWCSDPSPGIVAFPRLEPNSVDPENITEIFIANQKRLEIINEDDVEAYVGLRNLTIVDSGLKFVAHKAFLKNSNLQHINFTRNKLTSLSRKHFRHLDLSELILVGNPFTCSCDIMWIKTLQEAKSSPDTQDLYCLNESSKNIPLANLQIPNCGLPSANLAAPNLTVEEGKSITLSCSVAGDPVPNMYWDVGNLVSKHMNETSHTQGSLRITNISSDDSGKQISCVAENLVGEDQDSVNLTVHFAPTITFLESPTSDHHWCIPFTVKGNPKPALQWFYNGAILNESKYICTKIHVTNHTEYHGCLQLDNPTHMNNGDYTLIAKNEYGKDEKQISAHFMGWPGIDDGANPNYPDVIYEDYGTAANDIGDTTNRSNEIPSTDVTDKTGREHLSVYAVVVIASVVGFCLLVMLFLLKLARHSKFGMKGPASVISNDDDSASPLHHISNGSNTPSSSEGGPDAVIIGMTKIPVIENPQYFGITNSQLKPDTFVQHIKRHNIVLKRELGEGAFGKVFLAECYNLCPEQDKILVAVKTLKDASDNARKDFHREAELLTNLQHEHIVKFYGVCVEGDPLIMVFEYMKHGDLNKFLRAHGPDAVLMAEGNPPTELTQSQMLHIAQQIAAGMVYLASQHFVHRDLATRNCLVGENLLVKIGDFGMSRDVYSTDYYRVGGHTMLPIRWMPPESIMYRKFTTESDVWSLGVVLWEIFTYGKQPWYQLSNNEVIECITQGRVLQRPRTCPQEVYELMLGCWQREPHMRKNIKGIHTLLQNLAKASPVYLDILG
Sequence of UniProt P07711 (whole entry, looked up): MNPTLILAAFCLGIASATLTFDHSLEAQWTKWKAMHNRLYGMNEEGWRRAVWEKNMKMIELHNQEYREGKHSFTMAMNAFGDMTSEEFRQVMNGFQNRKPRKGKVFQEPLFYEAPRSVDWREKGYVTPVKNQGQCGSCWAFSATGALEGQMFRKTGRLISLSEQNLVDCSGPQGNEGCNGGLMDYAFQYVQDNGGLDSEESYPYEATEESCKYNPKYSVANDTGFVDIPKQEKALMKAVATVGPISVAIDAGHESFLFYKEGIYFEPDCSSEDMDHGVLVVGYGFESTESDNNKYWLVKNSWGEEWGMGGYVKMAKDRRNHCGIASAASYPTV

`Cc1cc(Nc2ccc(NC(=O)c3ccc(Nc4c5ccccc5nc5ccccc45)cc3)cc2)nc(N)n1` gave an inhibition of 11% (DNMT3A catalytic domain; enzyme activity, inhibitor; 10 µM).
For `CCn1nc(Cl)c2c1-c1cnc(N)c(c1)O[C@H](C)c1cc(F)ccc1-c1nn(C)cc1C2`, the inhibition was 2% (NTRK2 (Homo sapiens, UniProt Q16620); Ba/F3; 0.1 µM).
The inhibition of `Cc1ccc(C(C)C)cc1.Oc1ccccc1C=NNC1=Nc2ccccc2-c2[nH]c3ccc(Br)cc3c2C1.[Cl-].[Cl][Ru+]` is reported as ~50% (Cyclin-dependent kinase 2, with cyclin E (CDK2, Homo sapiens, UniProt P24941); inhibitor, radiometric kinase; 10 µM, with: cyclin E, histone H1 substrate; baseline: flavopiridol).
For `Cc1ccc(C(=O)Nc2ccc(CN)cc2)c(O)c1`, the inhibition was < 20% (Procathepsin L (CTSL, Homo sapiens, UniProt P07711); enzyme activity, inhibitor; 10 µM).
With `CS(=O)(=O)Nc1ccc2c(c1)[C@H](O)CC1(CCN([C@@H]3CCc4cc(C#N)ccc4C3)CC1)O2` the inhibition was > 90% (KCNH2 (Homo sapiens, UniProt Q12809, D540A); ion current, inhibitor, two-electrode voltage clamp; 2 µM, oocytes).
`CC(C)Cn1cc(-c2ccnc(Nc3ccc(N4CCN(CCCCCCC(=O)NO)CC4)cc3)n2)nn1` has an inhibition of 49.8% (CDK2 with cyclin A2; enzyme activity, inhibitor, TR-FRET; 5 µM).
For `C[C@]12CCC[C@H]1[C@@H]1CCc3c(cc(Cl)c(O)c3Cl)[C@H]1CC2`, the inhibition was 44.6% (AKR1C3; enzyme activity, inhibitor, absorbance; 100 µM, pH 9).
The inhibition of `CC(/C=C/C(=O)NO)=C\[C@@H](C)C(=O)c1ccc(N(C)C)cc1` is reported as 68.8% (PTPN11 (Homo sapiens, UniProt Q06124); enzyme activity, inhibitor, fluorescence; 20 µM).
`CN(Cc1ccccc1)C(=O)c1cccc(S(=O)(=O)N2CCOCC2)c1` has an inhibition of 32% (Ectonucleoside triphosphate diphosphohydrolase 2; enzyme activity, inhibitor, absorbance; 100 µM).
`COc1ccc2c(c1)CC[C@@H]1[C@@H]2CC[C@]2(C)C(=O)CC[C@@H]12` gave an inhibition of 16.7% (AKR1C3; enzyme activity, inhibitor, absorbance; 10 µM, pH 9).
`NOCC(=O)O` has an inhibition of 94% (CBS (Homo sapiens, UniProt P35520); enzyme activity, inhibitor, fluorescence; 100 µM).
For `CC(=O)c1cnc(N)nc1N1CC[C@H]1c1nn2ccc(Cl)c2c(=O)n1-c1ccccc1`, the inhibition was < 10% (Sulfonylurea receptor 2, Kir6.2 (Homo sapiens, UniProt O60706+Q14654); ion current; 3 µM).
With `C[C@]12CCC[C@H]1[C@@H]1CCc3c(cc(I)c(O)c3I)[C@H]1CC2` the inhibition was 27.3% (AKR1C3; enzyme activity, inhibitor, absorbance; 100 µM, pH 9).
With `Cc1cccc(/C=C/C(=O)c2cnn(-c3ccccc3)c2C)c1` the inhibition was 11.8% (MAL12; enzyme activity, inhibitor; 40 µM).
The inhibition of `NC(=O)c1cn(CC(=O)NC[C@H](NC(=O)CCc2nc(-c3cccnc3)no2)C(=O)Nc2cccc(C(=O)NO)c2)c(=O)[nH]c1=O` is reported as 1% (SIRT6; demyristoylation; 10 µM).
`N[C@H]1CC[C@H](Nc2nccc(-c3cccnc3Oc3ccc(NS(=O)(=O)CC(F)(F)F)c(F)c3)n2)CC1` gave an inhibition of ~80% (ERN1 (Homo sapiens, UniProt O75460); RNase activity, inhibitor; concentration not given, at quantitative kinase inhibition, with: XBP1 mini-substrate).
For `C[C@@]12CC[C@@H]3c4cc(Br)c(O)cc4CC[C@H]3[C@@H]1CCC2=O`, the inhibition was 23.8% (AKR1C3; enzyme activity, inhibitor, absorbance; 100 µM, pH 9).
With `CC(C)CCC[C@@H](C)[C@H]1CC[C@@H]([C@@H]2CC[C@H]3C[C@H](O)CC[C@]3(C)C2=O)[C@]1(C)CC(=O)NCCS(=O)(=O)O` the inhibition was 0.7% (Bile acid receptor (NR1H4, Homo sapiens, UniProt Q96RI1); reporter gene, antagonist, luciferase; HEK-293T; 10 µM).
For `CN(C1COC1)C(C)(C)/C=C(\C#N)C(=O)N1CCC[C@H]1Cn1nc(-c2ccc(Oc3ccccc3)cc2F)c2c(N)ncnc21`, the inhibition was > 90% (BMX (Homo sapiens, UniProt P51813); 1 µM, mean).
`C[C@]12CC[C@@H]3c4cc(Br)c(O)c(Br)c4CC[C@H]3[C@@H]1CCC2=O` has an inhibition of 58.3% (AKR1C3; enzyme activity, inhibitor, absorbance; 100 µM, pH 9).
With `NCCC(=O)N[C@@H](Cc1c[nH]c2ccccc12)C(=O)N[C@@H](Cc1ccc(Cl)cc1)C(=O)N[C@@H](Cc1ccccc1)C(N)=O` the inhibition was < 15% (EphA2; ephrin-A5 binding, ELISA; 500 µM).
`Oc1c(C(Nc2nccs2)c2ccccc2OCc2ccccc2)ccc2cccnc12` (centres unmarked) gave an inhibition of 92.6 ± 1.47% (Genome polyprotein, NS2B-NS3 protease (Dengue virus type 2, UniProt P14340); enzyme activity, inhibitor, fluorogenic; 25 µM, 0.1% CHAPS, with: Bz-Nle-Lys-Arg-Arg-AMC substrate).
`COCCNC(=O)[C@H](CNC(=O)Cn1cc(C(N)=O)c(=O)[nH]c1=O)NC(=O)CCc1nc(-c2cccnc2)no1` gave an inhibition of 9% (SIRT6; demyristoylation; 10 µM).
`Nc1ccccc1NC(=O)c1ccc(Nc2nccc(-c3cn(C4CCCCC4)nn3)n2)cc1` has an inhibition of -7.71% (CDK2 with cyclin A2; enzyme activity, inhibitor, TR-FRET; 50 nM).
The inhibition of `COc1c(-c2cccc(O)c2)oc2c(OC)c(O)cc(O)c2c1=O` is reported as 20.2% (MAL12; enzyme activity, inhibitor, absorbance; 2.5 µM).
`C[C@H](CCC(=O)N[C@H](CC(c1c[nH]c2ccc(NC(=O)OC(C)(C)C)cc12)c1c[nH]c2ccc(NC(=O)OC(C)(C)C)cc12)C(=O)O)[C@H]1CC[C@H]2[C@@H]3CC[C@@H]4C[C@H](O)CC[C@]4(C)[C@H]3CC[C@]12C` has an inhibition of 2% (Sialyltransferase ST3Gal-I (Rattus norvegicus, UniProt Q6H8N0); enzyme activity, inhibitor, UPLC; 500 µM).
`O=C(O)c1cc(S(=O)(=O)N2CCOCC2)ccc1Cl` has an inhibition of 15% (Ectonucleoside triphosphate diphosphohydrolase 2; enzyme activity, inhibitor, absorbance; 100 µM).
With `C[C@@H](N)C1CCN(S(=O)(=O)c2cccc3cnccc23)CC1` the inhibition was > 95% (HASPIN (Homo sapiens, UniProt Q8TF76); cell-free assay, competition with immobilised ligand; 10 µM).
The inhibition of `O=C(CCCCCCN1CCN(c2ccc(Nc3ncc(F)c(-c4cn(C5CCCC5)nn4)n3)cc2)CC1)NO` is reported as -7.98% (CDK2 with cyclin A2; enzyme activity, inhibitor, TR-FRET; 50 nM).
`C[C@]12CC[C@@H]3c4ccc(O)c(I)c4CC[C@H]3[C@@H]1CCC2=O` gave an inhibition of 36.4% (AKR1C3; enzyme activity, inhibitor, absorbance; 10 µM, pH 9).
`S=C(Nc1cc(Cl)cc(Cl)c1)Nc1cccc2[nH]ccc12` has an inhibition of 97% (Microtubule-associated protein tau, 2N3R isoform (MAPT, Homo sapiens, UniProt P10636); tau fibril formation, ThT fluorescence; 100 µM, tau at 10 µM).
`CC1C(=O)N(S(C)(=O)=O)C1c1ccccc1` (centres unmarked) — result for inhibition: “inactive” (Rhomboid protease AarA (Providencia stuartii, UniProt P46116); enzyme activity, inhibitor, fluorogenic peptide; concentration not given).
`C[C@H](CCC(=O)N[C@H](CC(c1c[nH]c2ccc(N=[N+]=[N-])cc12)c1c[nH]c2ccc(N=[N+]=[N-])cc12)C(=O)O)[C@H]1CC[C@H]2[C@@H]3CC[C@@H]4C[C@H](O)CC[C@]4(C)[C@H]3CC[C@]12C` (some centres unmarked) gave an inhibition of 89% (ST6GAL1 (Homo sapiens, UniProt P15907); enzyme activity, inhibitor, UPLC; 25 µM).
The inhibition of `Cc1cc(Nc2ccc(NC(=O)c3ccc(NC(=O)c4cccnc4)cc3)cc2)nc(N)n1` is reported as 0% (DNMT3A catalytic domain; enzyme activity, inhibitor; 10 µM).
`Cc1c(C)n(-c2ccc(Br)cc2)c2ncnc(N3CCC(C(N)C(=O)N4CCCC4)CC3)c12` (centres unmarked) gave an inhibition of 56% (PADI4 (Homo sapiens, UniProt Q9UM07); enzyme activity, inhibitor; 40 µM).
